# Experimental data of several laboratories.
# Numbered parts are unrelated; each lists some results of a single study. Positions count from the first letter of the parent shown.

# Sample 1
# Target: RNA binding protein fox-1 homolog 2, RRM domain, GST-SBP tag (RBFOX2, Homo sapiens, UniProt O43251-10, residues 100-194)
# Technique: RNA Bind-n-Seq
# Form: RNA
# Sample: in vitro
# Concentration: 365 nM
# Notes: natural RNA segment, single round, ends assumed
# Reference: no-protein control
# Reading: higher = stronger binding
# Residues (chain): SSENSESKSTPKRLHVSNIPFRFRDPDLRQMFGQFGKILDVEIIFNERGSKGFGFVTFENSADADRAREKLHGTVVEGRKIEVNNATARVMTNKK
Sequence,RBNS enrichment (R)
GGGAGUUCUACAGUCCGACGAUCAGGUAGAUGUGUAACCUCUUCACCUUAUUCAUGGCUGAAGUCACCUCUUGGUUACAGUAGCGUAGCGUGCCCGUGUGCAUGUCCUUUGCGCCUGUGACCACCACCCCAACUGGAAUUCUCGGGUGCCAA,0.59
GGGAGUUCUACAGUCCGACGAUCGGAAAGAGUUCACAUCUUAGGUUUGAAAGGGAGCAUUUGAGUCUUCUCACUGACCUCUUCCUAGCAGCUUAGAUAGCCUCAGACAUGACUGCCAGGAUUCCUGAUAUGCCUGGAAUUCUCGGGUGCCAA,0.565
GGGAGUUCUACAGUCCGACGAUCCCACACCUCAGGUCCAGCGCACACUUCCUCCUUGCAUAGCAGGUGGGAGCAGACUUCUAAUGGACAGAAGCCACGUGGGAAGUAGAGACUUGGAGGGAGACGCCGAGGUGUGGAAUUCUCGGGUGCCAA,0.371
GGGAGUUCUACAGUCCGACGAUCGAGUCAGUAGACUAUUUAGAGACUCAUGUAACUUGGGGUAUGGGCAUGCCUUUAUGGGAGCAGCCACUCUCUGACUAAGUGGCCACUGCUCUCACUUAGACUUUGCUGUCUGGAAUUCUCGGGUGCCAA,0.465
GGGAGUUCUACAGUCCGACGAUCGUAGAGAAACCGUGGAGAUCGCUUUUCUCAGACUCACCAACUUUUAAUGGGAUUUCAUGGGGUUUGGUUGUGCUGAUAGGGUAAGGGGAGGCUGCUUUCUGCCCUUCUCCUGGAAUUCUCGGGUGCCAA,0.413
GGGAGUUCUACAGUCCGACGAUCGCGGCCGAGGGCUUGGGAUACUGCACAGUGCUACUGUGUCCUGUGAAGGCUGGUGCACUCAGGGCUGUGGGAAGGCAGAAUCACCUCAUCCAUUUGGCCUGUGAAGGAAGUGGAAUUCUCGGGUGCCAA,0.97
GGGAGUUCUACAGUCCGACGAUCUGAUGGACUCCGGGGGCCUGACACUUGGGAUUUGGGAGGCUUCCUAGAGCGCUCAGCAGGUGAAGGCAGCAGGGGCCAUGGCCGGGAGCCAGGCCUAGCUUUGAACUGAGUGGAAUUCUCGGGUGCCAA,0.624
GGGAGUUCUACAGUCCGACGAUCUGGGGCCCUGGGGUGGGGUAGGCAGAUGGGCCAAGGUGACCACCAUUCUGCCUCAAUCUUUUGCAAGCCCACCUGCCUCUCUCCUGCUGCUCCUCCAGCUGUAUCUGCACUGGAAUUCUCGGGUGCCAA,0.332
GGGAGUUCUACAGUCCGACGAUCAAGCGCUCUCAUCUAACCUAUGUUGGGUUGUGCCACCACGUCUGUACCAGAUGUCCCAUCCGGCAUCUUUCCAUUGAAUCUUGUAGUGCAACUUGCGUAUCAUCUUCUCCUGGAAUUCUCGGGUGCCAA,0.208
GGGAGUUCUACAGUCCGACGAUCAAGAUUUUGGUGAGGAAUAAUAGUAUAUAGUUUAAGUAUUGACAAAACUUUGAAAGUUUCUUUCUUUAAAAUGGGAAAUACUCAAUAUCUAAAUCCAGGUCAGGCAUGGGUGGAAUUCUCGGGUGCCAA,1.11
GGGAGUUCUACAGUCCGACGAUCUGGCCCAUACUAAGGCUCUUCUGGGCUCCAGCACUCUUAAGUUAUUUUAAGAAUUCUCACUUGGCCUUUAGCACACCCGCCACCCCCAAGUGGGUGUGGAUAAUGCCAUGUGGAAUUCUCGGGUGCCAA,0.314
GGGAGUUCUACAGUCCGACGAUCUUGAAGCUCCUGAAAUUUUGAGCACUGCUCUAACAUUGUAGGAAGUUAGUGACAUUUUGCAAGUCUCUACAAAAGCUCUUGCCACAGAAUUCACUGCUGCCCUGACUCUUUGGAAUUCUCGGGUGCCAA,0.294

# Sample 2
# Target: Ras GTPase-activating protein-binding protein 1, full length (G3BP1, Homo sapiens, UniProt Q13283)
# UniProt Q13283, sequence (whole entry, looked up): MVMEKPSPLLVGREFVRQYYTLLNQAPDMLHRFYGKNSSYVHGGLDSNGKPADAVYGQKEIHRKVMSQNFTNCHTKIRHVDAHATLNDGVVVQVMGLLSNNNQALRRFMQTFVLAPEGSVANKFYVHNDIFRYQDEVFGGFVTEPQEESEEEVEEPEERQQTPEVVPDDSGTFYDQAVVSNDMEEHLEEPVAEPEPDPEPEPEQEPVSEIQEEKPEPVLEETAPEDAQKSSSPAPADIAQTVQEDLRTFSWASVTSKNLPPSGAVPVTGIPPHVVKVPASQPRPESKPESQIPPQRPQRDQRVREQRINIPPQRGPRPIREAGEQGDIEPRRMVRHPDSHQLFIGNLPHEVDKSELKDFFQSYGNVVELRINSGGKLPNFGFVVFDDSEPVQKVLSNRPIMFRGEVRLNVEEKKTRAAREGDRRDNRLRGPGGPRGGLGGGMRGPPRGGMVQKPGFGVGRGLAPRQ
# Technique: RNA Bind-n-Seq
# Form: RNA
# Sample: in vitro
# Concentration: 200 nM
# Notes: whole 134-nt RNA, ends assumed
# Together with: 150 mM LiCl
# Reference: input library
# Reading: higher = stronger binding
# All molecules: 7-deaza-guanosine replaces G
Sequence,log2 enrichment
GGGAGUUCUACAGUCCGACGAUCGUGCUACACAUCGUAUGUACCGAAUCGGGGAAAAAAAGGGGUUUUUUUGGGGUUUUUUUGGGGAAAGUAUUAUGUUACGCCGUUCGGAUCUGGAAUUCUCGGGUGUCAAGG,-1.67
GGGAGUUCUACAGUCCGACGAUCCAAGUCCUGUGCUACACAUCGUAUGUACCGAAUCGGGCCCGGGGCCCGGCCCGGGGAAAGUAUUAUGUUACGCCGUUCGGAUCUGCACUUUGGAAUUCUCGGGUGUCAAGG,-1.77
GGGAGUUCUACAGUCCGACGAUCUGGCCCUGGUGGCAUGCGGGGAGGAAGAGGUGGGCUCAUGGAUCGUGGUGGUCCCGGUGGAAUGUUCAGAGGUGGCCGUGGUGGAGACAGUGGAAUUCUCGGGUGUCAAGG,0.706
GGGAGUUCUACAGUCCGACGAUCCACAGACAACACGCACCCACACAGACACAGAGGGAAGGGGUUGGGAUGGGGACAGGGUGCACAGCAGGGCGGGGAAAGACCCCAGCCCCUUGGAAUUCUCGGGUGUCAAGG,1.24
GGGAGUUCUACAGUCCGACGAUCAGUCCUGUGCUACACAUCGUAUGUACCGAAUCGGGAAAAAAAGGGUGGGAAAAAGGGAAAGUAUUAUGUUACGCCGUUCGGAUCUGCACUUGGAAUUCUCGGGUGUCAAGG,-0.701
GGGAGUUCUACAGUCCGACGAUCUCAAGUCCUGUGCUACACAUCGUAUGUACCGAAUCGGGCCCGGCCCGGCCCGGGGAAAGUAUUAUGUUACGCCGUUCGGAUCUGCACUUCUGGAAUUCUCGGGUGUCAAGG,-0.849
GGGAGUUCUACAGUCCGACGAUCCAAGUCCUGUGCUACACAUCGUAUGUACCGAAUCGGGGUUUGGGUUUGGGUUUGGAAAGUAUUAUGUUACGCCGUUCGGAUCUGCACUUCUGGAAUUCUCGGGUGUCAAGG,-0.392
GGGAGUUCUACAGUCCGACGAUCCUCAAGUCCUGUGCUACACAUCGUAUGUACCGAAUCGGGCCGGCCGGGCCGGGGAAAGUAUUAUGUUACGCCGUUCGGAUCUGCACUUCCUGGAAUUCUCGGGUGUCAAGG,0.466
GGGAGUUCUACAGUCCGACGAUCAAGUCCUGUGCUACACAUCGUAUGUACCGAAUCGGGUGGGUUUUUGGGUUUUUGGGAAAGUAUUAUGUUACGCCGUUCGGAUCUGCACUUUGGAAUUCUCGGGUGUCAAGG,-0.401
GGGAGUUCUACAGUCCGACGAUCCAAGUCCUGUGCUACACAUCGUAUGUACCGAAUCGGUUUUUGGUGGAAAAAAAGGAAAGUAUUAUGUUACGCCGUUCGGAUCUGCACUUCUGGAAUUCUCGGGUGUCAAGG,-1.04
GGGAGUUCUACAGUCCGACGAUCCAAGUCCUGUGCUACACAUCGUAUGUACCGAAUCGGGUGGGAAAAAGGGUUUGGGAAAGUAUUAUGUUACGCCGUUCGGAUCUGCACUUCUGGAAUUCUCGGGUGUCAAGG,-1.78

# Sample 3
# Target: TAR DNA-binding protein 43, full length, His tag (TARDBP, Homo sapiens, UniProt Q13148, residues 1-414)
# Technique: RNA Bind-n-Seq
# Form: RNA
# Sample: in vitro
# Concentration: 20 nM
# Notes: 6-mer, flanks averaged, single round
# Together with: 150 mM KCl
# Reference: input library
# Reading: higher = stronger binding
Sequence,6-mer enrichment (R)
GGACCC,0.938
GUAAGG,1.75
UGGCUC,0.75
AUGACU,0.631
UAUUCG,0.591
UAAAUC,0.584
CGGUCG,1.26
CUAUAC,0.565
AGUCCG,0.799
CCAACG,0.763
CAGAGU,0.869
UGUCUG,0.852
UCCCUC,0.594

# Sample 4
# Target: ABI1, truncated, D143A, DHFR fusion (Arabidopsis thaliana)
# Technique: DHFR PCA, deep sequencing
# Sample: yeast
# Notes: methotrexate growth selection, single substitutions
# Together with: (+)-ABA 17 µM
# Reference: wild-type fitted maximum
# Reading: higher = stronger binding
# Starting sequence: PYL1, truncated, DHFR fusion (Arabidopsis thaliana); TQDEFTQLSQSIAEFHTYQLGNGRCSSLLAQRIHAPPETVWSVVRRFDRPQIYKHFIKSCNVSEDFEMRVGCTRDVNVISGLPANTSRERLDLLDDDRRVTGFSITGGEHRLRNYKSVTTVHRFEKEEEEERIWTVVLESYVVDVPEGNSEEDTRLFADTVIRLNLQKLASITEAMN
Substitution,relative binding score [%]
I52P,7.55
V118Q,38.9
R24V,73.5
V145R,16
H55F,76.8
R90Y,1.36
N114V,-1.25
R155S,33.4
Q51N,57.1
T119V,45.8
F66E,70.6
Y53H,63.3
V100W,-1.54
E109D,108
R45V,-9.03
I79S,63.8
A158K,9.5
R45D,-12.4
V161G,2.19
V121T,11.6
E131Y,73.8
S26N,63.2

# Excerpt of the above (sample 4):
Substitution,relative binding score [%]
I79S,63.8
A158K,9.5
R45D,-12.4
V161G,2.19
V121T,11.6
E131Y,73.8
